Published values collected from several papers.
A part holds a random share of what one study measured.

Series 1 — technique: competition protein-binding microarray; molecule type: double-stranded DNA, one strand shown; sample: in vitro; tested at: 2 µM; with: Cbf1 competitor, 0.05 µM; reading: higher = stronger binding
Target: Phosphate system positive regulatory protein PHO4, full length, GST-tagged (PHO4, Saccharomyces cerevisiae, UniProt P07270, residues 1-312)
Setting: whole 60-bp probe, lowest competitor level
Target sequence (chain): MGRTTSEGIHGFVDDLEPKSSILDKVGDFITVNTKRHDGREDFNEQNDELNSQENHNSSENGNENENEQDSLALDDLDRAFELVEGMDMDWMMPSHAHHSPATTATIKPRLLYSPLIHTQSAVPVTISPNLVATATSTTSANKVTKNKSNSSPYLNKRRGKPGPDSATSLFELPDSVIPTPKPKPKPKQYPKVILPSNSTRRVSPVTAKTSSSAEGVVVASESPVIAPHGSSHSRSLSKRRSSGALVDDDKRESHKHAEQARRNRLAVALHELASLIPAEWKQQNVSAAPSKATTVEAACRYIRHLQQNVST
Sequence | fluorescence intensity [a.u.]
CGGGGTTAAGTTTGGTGGGTGGGTGGCTTGCAGCAGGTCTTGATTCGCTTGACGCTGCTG | 5040
GAAGTCCCTAGCTTCCACGGGATGTTTCAGCATTAAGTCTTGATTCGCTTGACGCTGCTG | 5550
CCTGTCTCCTCTCAACACGTTGCTCCTGTCAATAGTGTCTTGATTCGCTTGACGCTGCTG | 12800
CATGAGAGCCATTTGCACGTTTACCGTTGAATTCCGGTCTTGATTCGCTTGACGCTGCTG | 10100
AATGAAGAAAGTTAAACCGTGATGGATTACTTCTTGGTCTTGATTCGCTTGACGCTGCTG | 5100
AAAAAAAAAACGAGTCACGTGCAAACAGTACCCCTTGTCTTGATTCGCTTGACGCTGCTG | 16200
AGTCCCAATACCTCTCACGTTTTGGGGGAATAGTTCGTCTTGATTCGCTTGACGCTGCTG | 9120
TTGCGGGTATCGTTGCCCGTGTCCTTGTCAATGAAGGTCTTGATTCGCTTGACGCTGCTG | 7300
TGCGCAACAACTTCTCACGTGTTTTTATGTCTAGAAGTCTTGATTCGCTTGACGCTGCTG | 15800
AAAATCACTTTCCATCACGTGCCGAGGGTGGAACGCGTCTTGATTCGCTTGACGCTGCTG | 19400
CTAACGAAGGTTTGACACGTGTTTTACAAGCCAAGTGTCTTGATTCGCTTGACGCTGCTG | 15900
GCTGCAAGATTAGTCTATGTGACGGTGCCTTTTTTGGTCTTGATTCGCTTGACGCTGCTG | 3680
AAACAAATATTAGCTCGCGTGGCCGAATGGCAACGCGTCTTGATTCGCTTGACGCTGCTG | 8270
CTTTCCCGATCTTGGGACGTGGGTGTAGCACATTTGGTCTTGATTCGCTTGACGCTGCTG | 7470
CACTCTGCTCACCGCTGCGTGCTTTTTGAACAAATTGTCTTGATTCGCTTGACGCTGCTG | 9380
AAAGCCTACGCGAGTCACGTTCCAGGAAGATGAAGGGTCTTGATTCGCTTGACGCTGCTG | 10400
AAGTCAAAACACCGTCACACGAAAACCATAACCTGTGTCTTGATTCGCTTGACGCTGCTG | 5190
TCTGTGATACAGCGTCACATGACAATTTAAAAGTGTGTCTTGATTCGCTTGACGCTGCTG | 7280

Series 2 — technique: RNA Bind-n-Seq; molecule type: RNA; sample: in vitro; tested at: 200 nM; setting: whole 134-nt RNA, ends assumed; with: 150 mM KCl; reference: input library; reading: higher = stronger binding
Target: Fragile X messenger ribonucleoprotein 1, C-terminal low-complexity region (Fmr1, Mus musculus, UniProt P35922)
Sequence | log2 enrichment
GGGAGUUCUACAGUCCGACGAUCAGUCCUGUGCUACACAUCGUAUGUACCGAAUCGGGGCCCCGGCCCCGGGCCCCGGGGAAAGUAUUAUGUUACGCCGUUCGGAUCUGCACUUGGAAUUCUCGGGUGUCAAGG | -0.909
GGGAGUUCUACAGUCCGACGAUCUCCUAGUAUUCUGGCCGUUCAGAGAUCUGCAAUCCUCAAGAAGCAGCAACAGCAGCAGCAGCAACAACAACAUCAAGCCUCAUCUAAUAGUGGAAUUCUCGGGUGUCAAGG | 0.458
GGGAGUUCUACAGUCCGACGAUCUGGCAGGAAAGAGUUCCUAGAGAGAGAAGACAAAGACAGUCUGUGUUGCAAAAGAAGCCCAAGGCUGAAGAUUUAAGAACUGAAUGUGCAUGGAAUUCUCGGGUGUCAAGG | -0.969
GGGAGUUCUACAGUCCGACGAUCACCAUGCAGGUGUGCAUCUUUGGGAAGUGGGGCAAGGGGGGGAUAGGGAGGGGGGUAACACUUUGGGAACAGGUGGUCCCAGGUCGUUUCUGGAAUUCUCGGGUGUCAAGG | 0.707
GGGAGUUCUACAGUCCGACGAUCAGUCCUGUGCUACACAUCGUAUGUACCGAAUCGGGAAAGGGUUUGGGUUUUUUUGGGAAAGUAUUAUGUUACGCCGUUCGGAUCUGCACUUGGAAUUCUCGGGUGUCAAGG | 0.149
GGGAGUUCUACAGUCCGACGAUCACCAUGCAGGUGGGCAUCUUUGGGAAGUGGGGCAAGGGGGGGAUAGGGAGGGGGGUAACACUGUGGGAACAGGUGGUCCCAGGUCGUUUCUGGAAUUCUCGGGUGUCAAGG | 0.785
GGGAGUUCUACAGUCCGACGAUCGCAGGAAGUAAAAACAAAUGGAAAUGCUUCGGAUAGUCGCAGGGGUGGGGGUUGCUAAGGAAAGGGUGGGAUGGGAGUGGGUAAAGAGUUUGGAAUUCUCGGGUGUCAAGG | 0.434
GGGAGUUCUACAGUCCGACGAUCCAAGUCCUGUGCUACACAUCGUAUGUACCGAAUCGGCCCCGGCCCCGGCCCCGGGGAAAGUAUUAUGUUACGCCGUUCGGAUCUGCACUUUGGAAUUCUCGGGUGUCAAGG | -0.603
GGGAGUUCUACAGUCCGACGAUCUCCUGUGCUACACAUCGUAUGUACCGAAUCGGGUUUGGGAAAAAAAGGGUUUUUUUGGGAAAGUAUUAUGUUACGCCGUUCGGAUCUGCAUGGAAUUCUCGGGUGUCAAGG | 0.0226
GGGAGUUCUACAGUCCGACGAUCUCCCUGAGACGGCGGGCAACAGCAUCGGCAGGAACGCCAUGGCCGUCCCCUCCCAGCUCUUACCUUACCAUCGACCUCACAGACGACACAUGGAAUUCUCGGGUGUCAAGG | 0.529

Series 3 — technique: RNA Bind-n-Seq; molecule type: RNA; sample: in vitro; tested at: 365 nM; reference: no-protein control; reading: higher = stronger binding
Target: RNA binding protein fox-1 homolog 2, RRM domain, GST-SBP tag (RBFOX2, Homo sapiens, UniProt O43251-10, residues 100-194)
Setting: natural RNA segment, single round, ends assumed
Residues (chain): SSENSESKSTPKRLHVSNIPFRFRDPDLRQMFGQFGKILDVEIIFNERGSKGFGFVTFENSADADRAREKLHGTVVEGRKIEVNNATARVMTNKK
Sequence | RBNS enrichment (R)
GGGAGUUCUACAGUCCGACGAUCGUUUUUCUAAGGGUCAACUCAGACUGCCCUGUACCCUGGAAAAAUAGCAAUAGCAGCCCCAUCUACCCUUUGAGUCCUCAACUAAACACCAGUGGGAAGAGAACCGUUCCUGGAAUUCUCGGGUGCCAA | 0.288
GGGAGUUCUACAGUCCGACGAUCGCUCAUUUUUUCAUGUUUUGUGAAUACUCUGGUCUUGCUGUAAGCUAAUGUCAUGGCUGUGGGAUAUUAGAGAAGUGGGUUUAUGACUCUGAAGACCAGCAGACACCAGAUGGAAUUCUCGGGUGCCAA | 0.587
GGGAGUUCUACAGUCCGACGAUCCUUGAGGUCUCUCCUUUGAGCCGUGGUCACCGAGAGGGUUGAGGACGCAGCACCCGAGGUCCCAGCCUUUGCAGGAGCCUCCCUGGGCUUAGCUGGACUUAGAUCUUCGGUGGAAUUCUCGGGUGCCAA | 0.293
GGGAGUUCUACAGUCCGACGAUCUAGGACUUUUCUAACAUAUGUCUAUAAUAUAGUGUUUAGGUUCUUUUUUUUUUCAGGAAUACAUUUGGAAAUUCAAAACAAUUGGCAAACUUUGUAUUAAUGUGUUAAGUUGGAAUUCUCGGGUGCCAA | 0.432
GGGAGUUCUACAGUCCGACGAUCAAUCUAAAGGAACAAGUGUGUCGUGUGUCAAGCUGAUGAGGACUGUCAGACUGUGGCUUAGCUCAGUGUGACCCAGACCUUGUGACCUGUAGCUGCCGAACCAGUAGCUCUGGAAUUCUCGGGUGCCAA | 0.505
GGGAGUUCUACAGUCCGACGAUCUAAUGAUUGCAAUCAUACAGUGCUUAAUAUGUGCCAGACACAGUGCCAAGGGCUUGCAUGCAUUAUCUCCUUUAAUCCACAAGCAGCUCUGGCGAGGUGGUAUUAGCCCAUGGAAUUCUCGGGUGCCAA | 2.27
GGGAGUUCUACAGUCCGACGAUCUAAAGGCUAUAUUGCUGUAAACUUAAUUGAUAAAGCUCUGUUUAAUUUAGAGUUUUGAAGAAAUAGUCUCCCUUCAAUUAAGAAAUUUUCAUAAUGGAAUGAUUUAAAUUUGGAAUUCUCGGGUGCCAA | 0.69
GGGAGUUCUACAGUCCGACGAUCAUUGAGUAGUAUAAGUAGGAUGUUUUUAUUACUUGGUCAUAAUGAAAAUAAUUUGUAAAAUGUCAUUCGAAGGUUAAUGAUGAUUGUGAUGUUUAGGAAUGUUUGUCUCAUGGAAUUCUCGGGUGCCAA | 18.1
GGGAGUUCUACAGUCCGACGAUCGGAUAGCACAACGUUUGGAGACGUGACAAAUGCUCUUACCCUUUGGAGACAAAAGUCCUAUUUUCUGUUUUCUUUUGUCUUUUGAUCUUUAAUUCACUAAUUAAUAGUGAUGGAAUUCUCGGGUGCCAA | 0.569

Series 4 — technique: RNA Bind-n-Seq; molecule type: RNA; sample: in vitro; tested at: 100 nM; reference: input RNA pool; reading: higher = stronger binding
Target: RING finger protein unkempt homolog, zinc fingers 1-6, SBP tag (UNK, Homo sapiens, UniProt Q9C0B0, residues 30-357)
UniProt Q9C0B0, sequence (30-357, looked up): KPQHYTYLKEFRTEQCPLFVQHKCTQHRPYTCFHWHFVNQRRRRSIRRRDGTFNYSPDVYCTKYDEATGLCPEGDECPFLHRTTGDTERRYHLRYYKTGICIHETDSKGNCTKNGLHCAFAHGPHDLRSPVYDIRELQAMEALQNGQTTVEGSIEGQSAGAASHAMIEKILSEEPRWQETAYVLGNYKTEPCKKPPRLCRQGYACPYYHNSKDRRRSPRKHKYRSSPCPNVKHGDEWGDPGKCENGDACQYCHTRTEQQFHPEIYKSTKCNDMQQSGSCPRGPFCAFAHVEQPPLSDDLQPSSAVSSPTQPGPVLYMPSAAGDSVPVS
Setting: RNA with constant flanks, vertebrate orthologous sites, ends assumed
Sequence | bound/input enrichment [ratio]
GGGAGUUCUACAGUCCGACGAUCAGCAACCCACGGAGGCAGGACUGCGUUUAUAAACGCGCCAAGUAGAUACGGAGCGAACAGUAGGGUGGGCCAACCGAGACCGUGAGGUACUACUCGCCUGCCGUUUAAUUUAUUUUGACGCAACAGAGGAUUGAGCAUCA | 0.559
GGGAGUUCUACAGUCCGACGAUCCCUUCCUUUUUCUAUUUUUUUUCUUUCGUUCUUUCUUUUUUUCCUUUUUUUUCUUUUUUGUAGUUGUUGUUACCCACGCCAUUUUACGUCUCCUUCACUGAAGGGCUAGAGUUUUAACUUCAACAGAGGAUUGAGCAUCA | 6.29
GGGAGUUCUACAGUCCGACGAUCGUUAGGUCAUGACCCAUAUAGGUUAGGUCAUGAUGCCUAUAGGUUAGGGCAGGACCCCUAUAGAUUAGGUCAUGACCCCUAUAGACUAACUCCUGAUCCCUAUAGGAUGUCGCCUAGACCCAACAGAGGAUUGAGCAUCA | 1.03
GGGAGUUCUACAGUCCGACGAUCAGUUUGUAUGUACAUUAUUCACACUCCUCUCUGUUGUGUUUGGGGGAAAAAAAAGACAUUUUAGCCUUUUUUAAGGUUAUUUAAUUUCAUGUUAUUUGGUUGCAUGAAGUUGCCCUUAACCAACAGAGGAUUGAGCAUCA | 0.479
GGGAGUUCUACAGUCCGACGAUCUAAUUCAAUGGUUGAGGGUUCAGAACUCAAAAAGGUUCGCUCCAACUCUAGAAUUUAUCACAGGUACUUUUUACUGGAUGCCGACAUGCAGAGCCUAAGGUGGGAGCCAUCAAAGAAGGACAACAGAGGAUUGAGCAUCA | 0.207
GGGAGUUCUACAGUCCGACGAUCGAGGCAUGUCCUGUAGCUGUGUUCAAACACCUCACAGUACUCACUCUGUCCCAACAAUUCUAAUUGCCUAGAAAUAUCCUUCUCUUACCUGUUAUUUAUCAAUUUUUCCCAGUAUUUUUACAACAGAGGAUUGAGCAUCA | 2.31
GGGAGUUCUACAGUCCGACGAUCUUACAGUCAUUGAUGGACUCUAUUUUUUUAUUAUUACUUGGACCUUGGUCGUUUUUAUACUAGCAAUGAAAAUGUCUUGUUUUAAUUUGUUUUUUGGGGUGUGGGGUGGGCAAUGUCUUGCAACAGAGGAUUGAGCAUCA | 0.911
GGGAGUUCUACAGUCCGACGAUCUUGGGACCAGCUCUCCAAAUAGGAAUAGUAGUAAAAAAAAUAAGCAAAAUGAUACUUGUAUAGAAAAAACGGAAGUUAAAUCAUGCAAGGUAAAUCCUGCCAGUGUUCCAGGCCCUAAAGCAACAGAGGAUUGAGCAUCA | 1.27

Excerpt of the above (series 1):
Sequence | fluorescence intensity [a.u.]
GCTGCAAGATTAGTCTATGTGACGGTGCCTTTTTTGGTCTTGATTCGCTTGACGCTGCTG | 3680
AAACAAATATTAGCTCGCGTGGCCGAATGGCAACGCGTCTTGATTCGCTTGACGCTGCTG | 8270
CTTTCCCGATCTTGGGACGTGGGTGTAGCACATTTGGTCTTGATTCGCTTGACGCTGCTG | 7470
CACTCTGCTCACCGCTGCGTGCTTTTTGAACAAATTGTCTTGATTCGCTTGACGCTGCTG | 9380
AAAGCCTACGCGAGTCACGTTCCAGGAAGATGAAGGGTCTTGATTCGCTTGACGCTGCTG | 10400
